Assay results from different studies.
A part holds a random share of what one study measured.

Sample 1 — method: protein-binding microarray; molecule type: double-stranded DNA, one strand shown; sample: in vitro; concentration: 250 nM; setting: 60-bp whole probe; with: salmon DNA 0.4 mg/ml; baseline: random background probes; reading: higher = stronger binding; shared flanks, not repeated: GCCTAGCAC … GTCTTGATTCGCTTGACGCTGCTG
Target: Interferon regulatory factor 7, full length, phosphomimetic (IRF7, Homo sapiens, UniProt Q92985, residues 1-503, S101K/S471D/S472D/S475D/S476D/S477D/S483D/S484D/S487D)
Residues (chain): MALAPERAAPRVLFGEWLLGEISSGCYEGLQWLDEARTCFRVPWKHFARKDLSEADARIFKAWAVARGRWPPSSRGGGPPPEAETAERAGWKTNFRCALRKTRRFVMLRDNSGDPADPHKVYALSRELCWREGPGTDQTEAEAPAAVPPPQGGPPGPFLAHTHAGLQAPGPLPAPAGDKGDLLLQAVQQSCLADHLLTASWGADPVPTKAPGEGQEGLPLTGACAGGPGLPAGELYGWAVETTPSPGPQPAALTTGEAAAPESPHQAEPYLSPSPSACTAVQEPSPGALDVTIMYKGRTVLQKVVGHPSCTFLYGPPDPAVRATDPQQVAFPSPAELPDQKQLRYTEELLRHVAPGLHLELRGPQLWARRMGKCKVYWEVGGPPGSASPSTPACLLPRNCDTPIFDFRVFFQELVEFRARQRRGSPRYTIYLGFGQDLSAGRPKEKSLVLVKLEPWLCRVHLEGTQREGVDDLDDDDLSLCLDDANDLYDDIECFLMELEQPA
| Oligonucleotide | log fluorescence [z-score] |
| --- | --- |
| TTAGGTATCCTTATCCTTTGGTGCTAG | 0.269 |
| TTAGGACAGGGACTGGGTTAGTGCTAG | -0.0612 |
| TTAGGTAACCTACTGCTTTAGTGCTAG | -0.18 |
| TTTAAATTCTAATTAGAATTGTGCTAG | 0.436 |
| GACGGTTTCGCACTGGGGACGTGCTAG | 3.6 |
| GCCGGTCTCCTTATCCTGACGTGCTAG | 0.296 |
| AGTGTCATGTTTCTATGGGCGTGCTAG | 0.312 |
| TTAGGTTTCGGGTATCGGTAAGTGCTA | 7.77 |
| GACGGTCTCCTACGGCTGACGTGCTAG | -0.534 |
| TACGGTATCGGGACTGGGGACGTGCTA | -0.127 |
| GACGGTTTCGGGTATTGGGACGTGCTA | 6.74 |
| CTCTACATGTGTTTAAAAAGGTGCTAG | 0.0359 |
| TTAGGTTTGCTTATCCTTTAGTGCTAG | 0.402 |

Sample 2 — method: RNA Bind-n-Seq; molecule type: RNA; sample: in vitro; concentration: not given; baseline: input RNA pool; reading: higher = stronger binding
Target: RING finger protein unkempt homolog, zinc fingers 1-6, GST-SBP tag (UNK, Homo sapiens, UniProt Q9C0B0, residues 30-357)
Setting: RNA with constant flanks, human-mouse chimeric sites, ends assumed
Shared flanks, not repeated: GGGAGUUCUACAGUCCGACGAUC … CAACAGAGGAUUGAGCAUCA
Construct (chain): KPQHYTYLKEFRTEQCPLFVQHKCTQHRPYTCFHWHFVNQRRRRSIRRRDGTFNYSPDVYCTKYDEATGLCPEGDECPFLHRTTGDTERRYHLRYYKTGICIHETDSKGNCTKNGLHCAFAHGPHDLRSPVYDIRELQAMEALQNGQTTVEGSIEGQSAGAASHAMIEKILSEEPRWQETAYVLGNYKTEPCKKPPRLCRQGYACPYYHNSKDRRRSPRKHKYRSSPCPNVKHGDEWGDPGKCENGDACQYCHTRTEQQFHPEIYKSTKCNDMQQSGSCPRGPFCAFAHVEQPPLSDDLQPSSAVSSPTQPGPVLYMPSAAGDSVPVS
| Oligonucleotide | bound/input enrichment |
| --- | --- |
| CCAAUCGUGGAGCAGUACUUGAAGACAAAGAAAAAUUCUAAUAAUUUAAUCAUCAAGUACAUUAGCUGCCGCCUGCUGACAUUUGUGAUUAUACUGUUAGCGUGUAUCUACCUGGGCUAU | 0.22 ratio |
| CUGUUUUGACAGCCACAAAUUCUUGGCAUGUAUUAAGGAAAAAAAAAAUCCCUGUUGAAGUAGUUUUUCCACCUAUCAGCACUGAGUAAAUGCCAUAAAUCCAUUGAAAUGGUCUAAAUA | 0.241 ratio |
| CCAAUCGUGGAGCAGUACUUGAAGACAAAGAAAAAUUCUAAUAAUUUAAUCAUGAAAUACAUUAGCUGCCGCCUGCUGACACUCAUCAUUAUACUGUUAGCGUGUAUCUACCUGGGCUAU | 0.54 ratio |
| UUGAAAACAAACUGAUUUAAGUUUGAGUAUCACAAUGUUAGCUUUCUAAUUCCAUAAAGAUAGUUUUUUUUUACAGUUUAUAAUCUGACAUCACCCCAGCGCCAUUUGUAAAGAGCAACU | 13.8 ratio |
| UGACAAGGGCACUGCAGAGCCAUGCCUUUCCUUGACAUACAGAAAAAGCUGGGCAUCAGCCUGGACCGGCACUUUAUAAUCCAGAGUGCAGAACAGCCCUAUAAGAACGCCGCUCGGUGC | 0.0737 ratio |
| CUGGCACUCUAUCAGAUAUAUUAAUUUUUUAAUGUAGAUGUAAUUUUAAAAAUGAAUGGCUACUUUACACGUUUAACUAGGGUUUUACUACAUAUGUGUACAUAUGUAUAUAUAUAUAUA | 5.85 ratio |
| AAAUCGUGUGUGUCCAAUAUUGAAAGUGCUUUAUCUACACUCCAGUAUGUAAGCAGUAUAGUAGUUUCUUUAGAGAAUAGGUCAGCCAUUGUGAAGUACAAUGCAAGCUCAGUCACUCCA | 28.6 ratio |
| AUGGAACAUUUUGAUGCGUCACUCAGUACCUAUUUCAAGGCCUUCCUGGGCCCCCGAGAUACAAGAGUCAAAGGAUGGUUCCUCCUGGACAAUUACAUACCCACAUUUGUCUGUUCUGUU | 0.131 ratio |
| GGGUGGGUGGUCAUUGCCGUUUGAGCUGCUGAUUUUCUUAUGAAUCAUUCAAAACUCUCGUGUAGGGUUGACAAUGUGGGGGGGUGGGGGAUCCAGCUUAUUCUUUUAUUUUCAAGUCCA | 0.656 ratio |
| UCUGGCCACACUCGUGUGUAUGGUGUUUGCUUUGUGGACACUUCACUGGGCAAGUUUUUCAUCGGCCAGUUUUCGGAUGACCGCCACUGUUCCAGAUUUAGGACUCUAGUGGCUCACUAU | 0.138 ratio |

Sample 3 — method: RNA Bind-n-Seq; molecule type: RNA; sample: in vitro; concentration: 365 nM; baseline: no-protein control; reading: higher = stronger binding
Target: RNA binding protein fox-1 homolog 2, RRM domain, GST-SBP tag (RBFOX2, Homo sapiens, UniProt O43251-10, residues 100-194)
Setting: natural RNA segment, single round, ends assumed
Shared flanks, not repeated: GGGAGUUCUACAGUCCGACGAUC … UGGAAUUCUCGGGUGCCAA
Construct (chain): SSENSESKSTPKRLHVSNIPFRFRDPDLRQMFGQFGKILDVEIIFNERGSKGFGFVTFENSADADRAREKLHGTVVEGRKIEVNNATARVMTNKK
| Oligonucleotide | RBNS enrichment (R) |
| --- | --- |
| UUCUCAUUUCCCAAUGCCUCUCUGUGGGAGAGCUCCAUGCCAGUUUUCACCACGCUCAGGCAAAUACUCUGCAGCUGUUAUUGGAUGGGCCAUUCCGAUCUGCCUUAUGA | 0.908 |
| GCUUCUGUGUGUGGUGAGCAGAAGUGGAGCUGGGGGGCGUGGAGAGCCCGGCGCCCCUGCCACCUCCCUGACCCGUCUAAUAUAUAAAUAUAGAGAUGUGUCUAUGGCUG | 0.622 |
| CCACAACAGCAUGUAAUUUUAGCCAAGAUAUGUCCUGUUACUAAGUAUCUCCCAAUGCUUUAGUAAAACGUAUUUAGGAGAAAUGUUGAAAAUGUACAUGAAGCUCCUUU | 11.3 |
| UGUGCGUAUUUAAAUUAGAUUAUUUAUAAUAACCAGAGCCAGCCCUCGCGCUGGCCAGGAUCCUCCUGCCGAGCUGAUGUCGCUCCUGCCCUCUGCCGGGGUCCGGAAGC | 0.282 |
| GACAGCUGGUCACACAAGGAACUCUUGAAGGCCACAUGUGAAAACCUGUCACUUGCACAGAGGCCAGUCCCACUAAGGUGACCAGAGUGGGCUCCAAGCACAAACUGCCA | 0.255 |
| UGGUUUUUGUUUCUUGCAUUUCUCUGGGAUGUGAAACACUUGGCUAACAAACACAACUAAGGCCUCUGGUACCCUCUGCCCUGCUGGCCUGGUGAUGUCCCAGUGUCUCA | 0.661 |
| UGUUGUCCUCCCCUCUAGUCCUUUGUUCCCUUUCUGAGCAUGUGGCCCCUCCCCCGGCUGUGAGGGGCAGCCGCCUUCCUAGGAAAGUGUAAUGCAGGAUCAAGACCACC | 0.745 |
| CCCACCACAGGGCAGCUGCGUUUUAGGAAGAGCAAAUGAAACUCCACACCAUUCUUCUAGAUCUCUGGUGUUCUCUUUGGUUUCAUUUUUUUAAAAAAUUACCUUCUUUG | 0.332 |
| GGACCUGAGGAUUGAGGUCCUUGCUUUCUCCUGGUGGCCAUGGGACCUCAGAGGCAUUUUUGCCAAGAGGGCAGAACCUGACUGAGCCCUGGAUAUCCCCUGUCUUAGUG | 0.186 |
| AGACCCUGCCUGUAUUCAGAAAUGUGGAACAGAGAAAUGGUGGGCCAGGAGUGAAGGCAGAUUUAGGGAAAUAAACAUUGUGUGUUAAAUCUUUUACUGACCUGGGUUUU | 0.748 |
| UGUGGAUGGCUUGAAGACUACUGAUGCUUUCCUCUGAAUUGUUCUUUGCACUGAAGGAGGACUUGGACUGACCUCCGACUUACAUAGUUUGUUAAGAGCUGUCUUUAGCA | 1.3 |

Mixed results
| Molecule | target | test | test system | conditions | scale | endpoint | result |
| --- | --- | --- | --- | --- | --- | --- | --- |
| PhoQ, residues 284 288 289 292 302 303 SLANKL | PhoP, residues 12 14 15 18 19 NMSSL (Escherichia coli, UniProt P23836) | Sort-seq, item: YFP reporter | E. coli | PhoQ-PhoP variant library, with: 10 µM Mg2+ | baseline: high Mg2+ state, higher = stronger signaling | fold induction | 8.99 |

Excerpt of the above (sample 3):
| Oligonucleotide | RBNS enrichment (R) |
| --- | --- |
| UGGUUUUUGUUUCUUGCAUUUCUCUGGGAUGUGAAACACUUGGCUAACAAACACAACUAAGGCCUCUGGUACCCUCUGCCCUGCUGGCCUGGUGAUGUCCCAGUGUCUCA | 0.661 |
| UGUGCGUAUUUAAAUUAGAUUAUUUAUAAUAACCAGAGCCAGCCCUCGCGCUGGCCAGGAUCCUCCUGCCGAGCUGAUGUCGCUCCUGCCCUCUGCCGGGGUCCGGAAGC | 0.282 |
| UGUUGUCCUCCCCUCUAGUCCUUUGUUCCCUUUCUGAGCAUGUGGCCCCUCCCCCGGCUGUGAGGGGCAGCCGCCUUCCUAGGAAAGUGUAAUGCAGGAUCAAGACCACC | 0.745 |
| UGUGGAUGGCUUGAAGACUACUGAUGCUUUCCUCUGAAUUGUUCUUUGCACUGAAGGAGGACUUGGACUGACCUCCGACUUACAUAGUUUGUUAAGAGCUGUCUUUAGCA | 1.3 |
| GACAGCUGGUCACACAAGGAACUCUUGAAGGCCACAUGUGAAAACCUGUCACUUGCACAGAGGCCAGUCCCACUAAGGUGACCAGAGUGGGCUCCAAGCACAAACUGCCA | 0.255 |
| GGACCUGAGGAUUGAGGUCCUUGCUUUCUCCUGGUGGCCAUGGGACCUCAGAGGCAUUUUUGCCAAGAGGGCAGAACCUGACUGAGCCCUGGAUAUCCCCUGUCUUAGUG | 0.186 |
